Experimental data of several laboratories.
Compare with care: the assays were run in different laboratories. “And” joins repeats or separate records; there may be more than shown. ± gives the spread as reported.

`C[C@H](CCC(=O)NCC(=O)O)[C@H]1CC[C@H]2[C@@H]3CC[C@@H]4C[C@H](O)CC[C@]4(C)[C@H]3CC[C@]12C` gave a plasma concentration of 13.3 ± 3.3 nM (healthy human volunteers, plasma; dose not given, 0 h, baseline phase, no drug).
`Cn1c(=O)[nH]c2ncn(C)c2c1=O` gave a plasma concentration of 15200 nM (human, both sexes, plasma; median).
For `COc1cc2c(cc1OC)CN(CCc1ccc(NC(=O)c3cc(OC)c(OC)cc3NC(=O)c3cnc4ccccc4c3)cc1)CC2`, the plasma concentration was 1700 nM (human, plasma; intravenous, 5.9 mg/kg, 60 min).
With `C[C@H](CCC(=O)NCC(=O)O)[C@H]1CC[C@H]2[C@@H]3CC[C@@H]4C[C@H](OS(=O)(=O)O)CC[C@]4(C)[C@H]3CC[C@]12C` the plasma concentration was 840 ± 254 nM (healthy human volunteers, plasma; dose not given, 0 h, baseline phase, no drug).
`Cn1cnc2c1c(=O)[nH]c(=O)n2C` has a plasma concentration of 22400 nM (human, both sexes, plasma; mean).
`CN1CCN(c2ccc(OC(F)(F)F)c(Nc3ncc4c(n3)-c3c(c(C(N)=O)nn3CCO)CC4)c2)CC1` has a plasma concentration of 16.8 ng/mL and 23.7 ng/mL and 39.5 ng/mL and 41.4 ng/mL and 33.7 ng/mL and 47.4 ng/mL (LC-MS/MS; human, plasma; oral, 12 mg/m2, 0 h post-dose).
`C[C@H](CCC(=O)NCC(=O)O)[C@H]1CC[C@H]2[C@@H]3[C@H](O)C[C@@H]4C[C@H](O[C@@H]5O[C@H](C(=O)O)[C@@H](O)[C@H](O)[C@H]5O)CC[C@]4(C)[C@H]3CC[C@]12C` has a plasma concentration of 46.5 ± 11.6 nM (healthy human volunteers, plasma; dose not given, 0 h, baseline phase, no drug).
`O=C(Nc1cnccc1Cl)N1CCN(Cc2ccc3c(c2)OC(F)(F)O3)CC1` gave a plasma concentration of 4.64 ng/mL and 8.63 ng/mL (human, plasma; 10 mg once daily, 24 h post dose day 7).
The plasma concentration of `O=C(O)CCCCCCCCCCCCCCC(=O)O` is reported as 155 ± 29 nM (healthy human volunteers, plasma; dose not given, 0 h, baseline phase, no drug).
For `Cn1cnc2[nH]c(=O)[nH]c(=O)c21`, the plasma concentration was 4710 nM (human, both sexes, plasma; median).
`N#Cc1ccc(C(c2ccc(C#N)cc2)n2cncn2)cc1` gave a plasma concentration of 114 ± 28.5 ng/mL (human patients, plasma; oral, 10 mg daily, day of surgery).
For `CO[C@H]1/C=C/O[C@@]2(C)Oc3c(C)c(O)c4c(O)c(c(/C=N/N5CCN(C)CC5)c(O)c4c3C2=O)NC(=O)/C(C)=C\C=C\[C@H](C)[C@H](O)[C@@H](C)[C@@H](O)[C@@H](C)[C@H](OC(C)=O)[C@@H]1C`, the plasma concentration was 8810 ng/mL (healthy male humans, plasma; oral, dose not given, 2 h, with cocktail).
For `C[C@@H](O)[C@H]1C(=O)N2C(C(=O)O)=C(SCCN=CN)C[C@H]12`, the plasma concentration was 35100 nM (human; intravenous, 500 mg single, 0.08 h).
